Measurements collected from several papers.
Lines come from different studies, so protocols differ. ± gives the spread as reported.
PDK1: [Pyruvate dehydrogenase (acetyl-transferring)] kinase isozyme 1, mitochondrial (PDK1, Homo sapiens, UniProt Q15118)
AKR1C2: Aldo-keto reductase family 1 member C2 (AKR1C2, Homo sapiens, UniProt P52895)
AMY2: Pancreatic alpha-amylase (AMY2, Sus scrofa, UniProt P00690)
hdac10: Polyamine deacetylase HDAC10 (hdac10, Danio rerio, UniProt F1QCV2)
ELANE: Neutrophil elastase (ELANE, Homo sapiens, UniProt P08246)
CDK4 with cyclin D3: Cyclin-dependent kinase 4, with cyclin D3 (CDK4, Homo sapiens, UniProt P11802)
Sigmar1: Sigma non-opioid intracellular receptor 1 (Sigmar1, Rattus norvegicus, UniProt Q9R0C9)
PNLIP: Pancreatic triacylglycerol lipase (PNLIP, Sus scrofa, UniProt P00591)
Ectonucleoside triphosphate diphosphohydrolase 8: Ectonucleoside triphosphate diphosphohydrolase 8 (Homo sapiens, UniProt Q5MY95)

O=C(c1ccc(OCCO)c([N+](=O)[O-])c1)C(Cl)Cl
inhibition (PDK1; enzyme activity, inhibitor, ATP luminescence; 10 µM): 33.2 to 39.1%

C[C@@]12CC[C@@H]3c4ccc(O)c(I)c4CC[C@H]3[C@@H]1CCC2=O
inhibition (AKR1C2; enzyme activity, inhibitor, absorbance; 10 µM, pH 9): 16.5%

N#Cc1c(Cl)ccc(Oc2ccc(Cl)cc2Cl)c1O
inhibition (ENR (Toxoplasma gondii, UniProt Q6UCJ9); enzyme activity, inhibitor; 1 µM): 95%

C[C@]12CC[C@@H]3c4cc(I)c(O)cc4CC[C@H]3[C@@H]1CCC2=O
inhibition (AKR1C2; enzyme activity, inhibitor, absorbance; 100 µM, pH 9): 52.5%

Cc1ccc(C(=O)/C=C/c2ccc3c(c2)OCCO3)s1
inhibition (MAOB (Homo sapiens, UniProt P27338); enzyme activity, inhibitor, fluorescence; 1 µM): 69.9%

Cc1cccc(/C=C/C(=O)c2cnn(-c3ccccc3)c2C)c1
inhibition (AMY2; enzyme activity, inhibitor, absorbance; 10 µM): 12.9%

CS(=O)(=O)c1ccc(Nc2ncnc3[nH]c4cc(Br)ccc4c23)cc1
inhibition (PTK6 (Homo sapiens, UniProt Q13882); enzyme activity, inhibitor, ADP detection; 2 µM): 36.5%

COc1cc(C(=O)NC2CCC(N3CCN(CC4CCC5(CCCC5)C4)CC3)CC2)c(F)cc1Nc1ncc2c(n1)N(C1CCCC1(F)F)CC(F)(F)C(=O)N2C (centres unmarked)
inhibition (DDR2 (Homo sapiens, UniProt Q16832); cell-free assay, TR-FRET; 10 µM): 3.48%

CC1CCN(C(=O)CCc2nc(CN3CCN(S(=O)(=O)c4ccc(Cl)cc4)CC3)no2)CC1
inhibition (SCN9A (Homo sapiens, UniProt Q15858); sodium current, whole-cell patch clamp; HEK293, stable; 20 µM): 24 ± 4%

CC(C)(O)C1=CCC(C2CC[C@]3(C)C2CCC2[C@@]4(C)CCC(O)C(C)(C)C4CC[C@]23C)C1=O (some centres unmarked)
inhibition (AMY2; enzyme activity, inhibitor, absorbance; 250 µM): 22.8%

O=C(/C=C/c1ccc2c(c1)sc1ccccc12)NO
inhibition (hdac10; 0.1 µM): < 10%

OB(O)c1ccccc1
inhibition (ELANE; enzyme activity, inhibitor, fluorimetric; up to 100 µM): inactive

O=C(NO)c1coc(-c2ccc(Br)cc2)n1
inhibition (hdac10; 1 µM): > 95%

Nc1ccccc1NC(=O)c1ccc(Nc2nccc(-c3cn(C4CCCC4)nn3)n2)cc1
inhibition (CDK4 with cyclin D3; enzyme activity, inhibitor, TR-FRET; 5 µM): 6.94%

CCc1nc2ccccn2c1C(=O)NCc1ccc2oc(-c3ccc(OC(F)(F)F)cc3)nc2c1
inhibition (Cytochrome bc1-aa3 supercomplex (Mycolicibacterium smegmatis, UniProt A0R052+I7GD61); oxygen consumption, Clark electrode; 10 µM, added: NADH): 50%

O=C(O)[C@@H](O)[C@H]1OC(=O)[C@H](O)[C@H]1O
inhibition (Beta-glucuronidase (uidA, Escherichia coli, UniProt P05804); enzyme activity, inhibitor, absorbance; 100 µM): 76.2%

CN(CCON=C(c1ccccc1)c1ccc(C(F)(F)F)cc1)Cc1ccccc1 (mixture of isomers)
inhibition (Sigmar1; radioligand binding; 10 µM): 94.8%

C[C@H](NC(=O)CNC(=O)[C@H](Cc1ccc(O)cc1)NC(=O)[C@@H](N)CSSC[C@H](N)C(=O)N[C@@H](Cc1ccc(O)cc1)C(=O)NCC(=O)N[C@@H](C)C(=O)N[C@@H](CCCCN)C(N)=O)C(=O)N[C@@H](CCCCN)C(N)=O
inhibition (Calpain-10, mitochondrial (Oryctolagus cuniculus, UniProt G1TPK4); enzyme activity, inhibitor; rabbit mitochondrial matrix; concentration not given, presence versus absence of Ca2+, added: Ca2+ 6 mM): no effect

O=C1C[C@@H](c2ccc(O)c(O)c2)c2c(cc(O)c3c2O[C@H](c2ccc(O)c(O)c2)[C@H](O)C3)O1
inhibition (α-glucosidase (Saccharomyces cerevisiae); inhibitor; 10 µg/mL, added: pNPG): 40.07 ± 0.27%

O=C(NO)C1=CCCC1
inhibition (hdac10; 0.1 µM): 45%

CC1=C(/C=C/C(C)=C/C=C/C(C)=C/C=O)C(C)(C)CCC1
inhibition (CNGA1 (Bos taurus, UniProt Q00194); cGMP-activated current, inhibitor, inside-out patch clamp; 30 nM, added: low cGMP (~7.4% activation)): 67.6%

O=C(c1ccc(OCCCO)c([N+](=O)[O-])c1)C(Cl)Cl
inhibition (PDK1; enzyme activity, inhibitor, ATP luminescence; 10 µM): 33.2 to 39.1%

COc1ccc(-c2nc(CSc3nc(N)c(C#N)c(-c4ccc5c(c4)OCO5)c3C#N)cs2)cc1
inhibition (ADORA2A (Homo sapiens, UniProt P29274); ligand displacement, radioligand; 1 µM, cell membranes): 54%

O=C1C=C(O)C(=O)c2ccccc21
inhibition (1-deoxy-D-xylulose 5-phosphate reductoisomerase (Escherichia coli K-12, UniProt P45568); enzyme activity, inhibitor, absorbance; 100 µM): 100%

COc1ccc(Br)c(/C=C/C(=O)NO)c1
inhibition (hdac10; 0.1 µM): 11%

NC(=O)c1ccc(C(=O)NOCc2ccc(Sc3cccc(Cl)c3)c(C(F)(F)F)c2)cc1
inhibition (HDAC7 (Homo sapiens, UniProt Q8WUI4); cell-free assay, inhibitor; 100 µM): 22.1%

N#Cc1c(NC(=O)CCl)sc2c1CCC(c1ccccc1)C2 (centres unmarked)
inhibition (PDK1; enzyme activity, inhibitor, ATP luminescence; 100 µg/mL): 11.2%

C[C@@]12CC[C@@H]3c4cc(Cl)c(O)cc4CC[C@H]3[C@@H]1CCC2=O
inhibition (AKR1C2; enzyme activity, inhibitor, absorbance; 10 µM, pH 9): 83%

O=C(O[C@@H]1Cc2c(O)cc(O)cc2O[C@@H]1c1ccc(O)c(O)c1)c1ccc(O)cc1
inhibition (PNLIP; enzyme activity, inhibitor; 10 µM): 55.8%

O=C(O)c1cccc(S(=O)(=O)NC2CC2)c1
inhibition (Ectonucleoside triphosphate diphosphohydrolase 8; enzyme activity, inhibitor, absorbance; 100 µM): 24%

COc1cccc(COc2ccccc2/C=C/C(=O)NO)c1
inhibition (hdac10; 1 µM): 24%

CN(Cc1cc(C2CC2)on1)C(=O)c1cccc(-c2ccncc2)c1
inhibition (Acetyl-CoA synthetase (Cryptococcus neoformans, UniProt J9VFT1); enzyme activity; concentration not given): inactive

O=C(NCc1ccccc1)c1cc(S(=O)(=O)NCc2ccccc2)ccc1Cl
inhibition (Ectonucleoside triphosphate diphosphohydrolase 3 (Homo sapiens, UniProt O75355); enzyme activity, inhibitor, absorbance; 100 µM): 12%

C[C@]12CC[C@@H]3c4cc(I)c(O)c(I)c4CC[C@H]3[C@@H]1CCC2=O
inhibition (AKR1C2; enzyme activity, inhibitor, absorbance; 100 µM, pH 9): 62.2%

COc1ccc(-c2nc(C(=O)NCc3ccc(C)cc3)c(O)c3ncccc23)c(OC)c1
inhibition (Tripartite terminase subunit 3, C-terminal nuclease domain (Human betaherpesvirus 5, UniProt P16732); endonuclease activity, ELISA; 10 µM): 69 ± 1.6%

Cn1c(-c2ccccc2)ccc1-c1nc(-c2ncc(Br)cn2)no1
inhibition (Programmed cell death 1 ligand 1, with PD-1 (CD274, Homo sapiens, UniProt Q9NZQ7); PD-1/PD-L1 binding, inhibitor, TR-FRET; 25 µM): ≥ 20%

C/C(=N\OCCCCN(C)Cc1ccccc1)c1ccc(C(F)(F)F)cc1
inhibition (Sigmar1; radioligand binding; 1 µM): 51.3%

C[C@@]12CC[C@@H]3c4cc(Br)c(O)c(Br)c4CC[C@H]3[C@@H]1CCC2=O
inhibition (AKR1C2; enzyme activity, inhibitor, absorbance; 10 µM, pH 9): 70.3%

C/C(=N\OCCCN1CCCCC1)c1cccc(C(F)(F)F)c1
inhibition (Sigmar1; radioligand binding; 10 µM): 97.3%

O=C(O)c1cccc(S(=O)(=O)N2CCOCC2)c1
inhibition (Ectonucleoside triphosphate diphosphohydrolase 8; enzyme activity, inhibitor, absorbance; 100 µM): 9%

CC(C)Cn1cc(-c2ccnc(Nc3ccc(N4CCN(CCCCCCC(=O)NO)CC4)cc3)n2)nn1
inhibition (CDK4 with cyclin D3; enzyme activity, inhibitor, TR-FRET; 50 nM): 28.2%

O=C(/C=C/c1ccccc1Br)NO
inhibition (hdac10; 1 µM): 85%

C/C(=N\OCCN1CCCC1)c1ccc(C(F)(F)F)cc1
inhibition (Sigmar1; radioligand binding; 10 µM): 94.2%

C[C@@]12CC[C@@H]3c4ccc(O)c(Br)c4CC[C@H]3[C@@H]1CCC2=O
inhibition (AKR1C2; enzyme activity, inhibitor, absorbance; 10 µM, pH 9): 80%

CCc1nc2ccccc2n1S(=O)(=O)c1ccc2c(c1)C(=O)CC2=O
inhibition (ELANE; enzyme activity, inhibitor, fluorescence; 1 µM): 52.6%

CN(C)c1ccc(C(=O)NCC2CCC(C(=O)NO)CC2)cc1 (centres unmarked)
inhibition (hdac10; 1 µM): 19%

C/C(=N\OCCCCN1CCCCC1)c1ccc(C(F)(F)F)cc1
inhibition (Sigmar1; radioligand binding; 1 µM): 72.9%

O=C1c2c(O)cc(O)cc2OC2(c3ccc(O)cc3)Oc3cc(O)c4c(c3C12O)OC(c1ccc(O)cc1)C(O)C4 (centres unmarked)
inhibition (PNLIP; enzyme activity, inhibitor, absorbance; 250 µM): 69.5%

O=C(NO)c1coc(-c2ccc3ccccc3c2)n1
inhibition (hdac10; 1 µM): 34%

CCOc1c(C(C)(C)O)sc2cnc(Nc3ccc(N4CCC(N5CC6(COC6)C5)CC4)cc3OC)nc12
inhibition (CAMK2G (Homo sapiens, UniProt Q13555); enzyme activity, inhibitor; 0.1 µM): 98%

Cc1nc2ccccc2n1S(=O)(=O)c1ccc2c(c1)C(=O)CC2=O
inhibition (ELANE; enzyme activity, inhibitor, fluorescence; 100 µM): 35.2%

O=C(O[C@H]1Cc2c(O)cc(O)cc2O[C@@H]1c1ccc(O)c(O)c1)c1cc(O)c(O)c(O)c1
inhibition (PNLIP; enzyme activity, inhibitor; 10 µM): 96.4%

Clc1ccc(-c2cs/c(=N/N=C/c3ccc(N4CCOCC4)cc3)n2-c2cccc3ccccc23)cc1
inhibition (CA2 (Bos taurus, UniProt P00921); enzyme activity, inhibitor, absorbance; 500 µM): 80.5%
